Published values of several laboratories.
Protocols differ between the studies behind these lines. ± marks the error that the study gave.

| SMILES | cell line | test | setting | how to read | quantity | result |
| --- | --- | --- | --- | --- | --- | --- |
| O=C(/C=C/C=C/C=C/C1CCCCC1)NC1=C[C@@](O)(/C=C/C=C/C=C/C(=O)NC2=C(O)CCC2=O)[C@@H]2O[C@@H]2C1=O | KYSE-520 | cell growth, CellTiter-Glo | 78 h |  | GI50 | 15.5 µM |
| CCn1cc(-c2cc(Cn3ccoc3=N)cc3c2CCN([C@@H](C)c2cc(OC)ccn2)C3=O)c(C(F)(F)F)n1 | COV644 | cell growth | 120 h |  | EC50 | > 30 µM |
| CN1CCC(COc2cnc(-c3cccc(Cn4nc(-c5cccc(C#N)c5)ccc4=O)c3)nc2)CC1 | THP-1 | pyroptotic LDH release | 2 µM, 40 min, together with: LPS then nigericin |  | inhibition | 30.6% |
| COc1cc(O)c2c(=O)c(O)c(-c3ccc(O)c(O)c3)oc2c1 | coculture, Caco-2, THP-1 | ELISA | 250 ng/mL, 8 h, together with: LPS, IFNγ, ATP | reference: untreated control | IL-1β level | 5 ± 1 fold change |
| Cn1cc(-c2ccncc2)c(-c2ccc(OCc3ccc4ccccc4n3)cc2)n1 | HEK293T ATF4-FLuc reporter | ATF4 reporter gene, activator, luciferase reporter |  |  | EC50 | 4.93 µM |
| Cn1cc(-c2ccc(-c3cncc(Cl)c3N3CCC4(CCNC4=O)CC3)cc2)cn1 | COLO 205 | gene expression, microarray, refers to: SKP2 mRNA | concentration not given, 2 h | reference: untreated cells | log2 fold change | -2.21 |
| CC(=O)OC/C=C(\C)CCC=C(C)C | THP-1 | pyroptotic LDH release | 2 µM, 40 min, together with: LPS then nigericin |  | inhibition | 12.9% |
| CCn1cc(-c2cc(Cn3ccnc3)cc3c2CCN([C@H](c2cc(OC)ccn2)C2CC2)C3=O)c(C(F)(F)F)n1 | COV644 | cell growth | 120 h |  | EC50 | > 30 µM |
| COC[C@H](NC(=O)[C@H](CCC(=O)NC(C)(C)C)NS(=O)(=O)c1ccc(C)cc1)C(=O)NCc1ccc(F)c2ccccc12 | RPMI-8226 | cell viability, CellTiter-Glo | 72 h |  | EC10 | 0.25 µM |
| CC(S)C(=O)NCC(=O)O (stereo not shown) | THP-1 | pyroptotic LDH release | 2 µM, 40 min, together with: LPS then nigericin |  | inhibition | -44.2% |
| COc1cnc2cccc(N3CCc4c(cc(Cn5ccnc5C)cc4-c4cn(C)nc4C(F)(F)F)C3=O)c2c1 | OCUM1 | cell growth, inhibitor | 120 h |  | EC50 | 0.685 µM |
| Cc1cc(NS(=O)(=O)c2ccc(N)cc2)no1 | THP-1 | pyroptotic LDH release | 2 µM, 40 min, together with: LPS then nigericin |  | inhibition | 29.3% |
| COc1ccc2[nH]c(C(=O)c3ccccc3)cc2c1 | HEK293T ATF4-FLuc reporter | ATF4 reporter gene, activator, luciferase reporter |  |  | EC50 | > 9.96 µM |

A few entries again:
| SMILES | cell line | test | setting | how to read | quantity | result |
| --- | --- | --- | --- | --- | --- | --- |
| O=C(/C=C/C=C/C=C/C1CCCCC1)NC1=C[C@@](O)(/C=C/C=C/C=C/C(=O)NC2=C(O)CCC2=O)[C@@H]2O[C@@H]2C1=O | KYSE-520 | cell growth, CellTiter-Glo | 78 h |  | GI50 | 15.5 µM |
